Measured values pooled from the literature.
A part holds a random share of what one study measured. Substitutions count along the parent as printed.
Sequence of UniProt O15294 (whole entry, looked up): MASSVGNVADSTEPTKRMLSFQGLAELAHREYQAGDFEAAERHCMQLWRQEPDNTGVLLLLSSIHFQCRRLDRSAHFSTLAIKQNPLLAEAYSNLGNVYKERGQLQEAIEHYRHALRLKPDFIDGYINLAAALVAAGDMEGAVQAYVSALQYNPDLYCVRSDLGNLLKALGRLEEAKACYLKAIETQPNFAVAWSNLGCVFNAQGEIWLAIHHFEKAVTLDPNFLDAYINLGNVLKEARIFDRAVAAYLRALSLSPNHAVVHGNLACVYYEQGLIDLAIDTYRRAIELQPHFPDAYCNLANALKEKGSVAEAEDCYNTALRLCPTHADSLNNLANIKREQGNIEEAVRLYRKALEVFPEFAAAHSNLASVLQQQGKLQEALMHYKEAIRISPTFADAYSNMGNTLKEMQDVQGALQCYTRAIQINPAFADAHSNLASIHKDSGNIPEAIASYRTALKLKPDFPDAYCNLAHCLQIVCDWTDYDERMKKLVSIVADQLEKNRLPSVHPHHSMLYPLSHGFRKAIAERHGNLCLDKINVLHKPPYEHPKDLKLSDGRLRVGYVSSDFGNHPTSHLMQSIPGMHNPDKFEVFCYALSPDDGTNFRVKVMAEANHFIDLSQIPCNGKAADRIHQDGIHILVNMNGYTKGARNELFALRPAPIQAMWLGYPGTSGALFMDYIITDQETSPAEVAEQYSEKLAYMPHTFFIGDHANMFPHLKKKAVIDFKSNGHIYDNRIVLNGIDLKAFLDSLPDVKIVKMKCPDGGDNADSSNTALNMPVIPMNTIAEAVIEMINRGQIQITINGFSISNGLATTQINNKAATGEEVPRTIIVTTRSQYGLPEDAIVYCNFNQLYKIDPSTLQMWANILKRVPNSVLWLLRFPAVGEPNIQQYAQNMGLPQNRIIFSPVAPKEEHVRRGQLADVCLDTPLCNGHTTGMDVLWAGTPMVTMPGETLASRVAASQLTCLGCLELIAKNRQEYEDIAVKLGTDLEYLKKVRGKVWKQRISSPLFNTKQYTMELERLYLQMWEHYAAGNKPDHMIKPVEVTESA

Study 1
Target: Transcriptional repressor CTCF (CTCF, Homo sapiens, UniProt P49711, residues 1-727, full length assumed)
Technique: protein-binding microarray
Form: double-stranded DNA, one strand shown
Sample: in vitro
Tested at: not given
Setting: k-mer, scored over probes, only values ≥0.25
Direction: higher = stronger binding
Residues (chain): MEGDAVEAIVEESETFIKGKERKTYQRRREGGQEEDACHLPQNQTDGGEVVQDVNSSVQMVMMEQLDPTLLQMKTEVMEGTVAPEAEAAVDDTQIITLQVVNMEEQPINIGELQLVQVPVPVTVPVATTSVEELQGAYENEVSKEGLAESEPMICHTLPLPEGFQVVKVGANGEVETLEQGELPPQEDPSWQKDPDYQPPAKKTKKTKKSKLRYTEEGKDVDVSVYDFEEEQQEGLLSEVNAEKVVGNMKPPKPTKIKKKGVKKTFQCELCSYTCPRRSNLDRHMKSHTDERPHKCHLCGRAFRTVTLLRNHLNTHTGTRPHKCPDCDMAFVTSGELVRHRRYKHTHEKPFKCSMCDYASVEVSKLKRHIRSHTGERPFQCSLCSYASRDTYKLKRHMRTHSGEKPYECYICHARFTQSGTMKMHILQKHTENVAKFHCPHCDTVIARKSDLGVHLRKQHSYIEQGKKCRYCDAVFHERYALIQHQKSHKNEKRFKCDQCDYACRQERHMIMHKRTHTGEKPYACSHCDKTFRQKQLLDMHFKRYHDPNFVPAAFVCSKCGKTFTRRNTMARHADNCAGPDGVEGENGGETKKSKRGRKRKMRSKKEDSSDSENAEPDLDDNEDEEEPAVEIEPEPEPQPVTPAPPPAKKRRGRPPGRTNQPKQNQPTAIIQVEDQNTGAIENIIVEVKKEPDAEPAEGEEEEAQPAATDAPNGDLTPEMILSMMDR
| Sequence | E-score |
| --- | --- |
| AAGTTATT | 0.311 |
| ACGCGCTA | 0.355 |
| ACATGCAA | 0.269 |
| AAAGGCCG | 0.293 |
| AGCGCGAT | 0.338 |
| GGCGCACA | 0.394 |
| GGCGCCAC | 0.273 |
| ATATACAA | 0.321 |

Study 2
Target: RNA binding protein fox-1 homolog 2, RRM domain, GST-SBP tag (RBFOX2, Homo sapiens, UniProt O43251-10, residues 100-194)
Technique: RNA Bind-n-Seq
Form: RNA
Sample: in vitro
Tested at: 365 nM
Setting: natural RNA segment, single round, ends assumed
Baseline: no-protein control
Direction: higher = stronger binding
Constant ends, left off below: GGGAGUUCUACAGUCCGACGAUC … UGGAAUUCUCGGGUGCCAA
Target sequence (chain): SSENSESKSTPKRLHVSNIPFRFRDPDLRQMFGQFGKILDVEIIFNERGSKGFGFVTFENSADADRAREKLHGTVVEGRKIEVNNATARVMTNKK
| Sequence | RBNS enrichment (R) |
| --- | --- |
| GACAGCUAGCUAAGUCAAGCUUUUCAAUAGAGGAGAAAAUAAAGAUGGCGACAGGUUGGCUUAGGUGGAGGAAGAAAAGAGUUAUCAUUUUUAGACUAAAUCCACGCAUG | 0.569 |
| GUUACUAUCUUAGGAAUAGCAAAUUAUGUCCAGUCAUAGAGAAGAAAGCUUCAUAAUAAUACAUUCUUACCUAAAGCUCACUGUCAUGAUGUUAGGUAUUUAAAUUCUUA | 0.481 |
| UCAGGGGCCACUGGACUAUUUGCAAGGUGACAGGGACUGGAGCCAUGGCUCAGAGGUGAUUCGGGCAGCCAGGGACAGGAGCCACCCUCCCCAGGCCCAACUCUGCUAGC | 0.938 |
| UUAAUUUUGUUAAUCCUGUCUGGGACAUUUAGGUAACAUCUAAAGCAUUAUUGCUUUAGAAUGUUCAAAUAAAAUUUCCUGACCAAAUUGUUUUGUGACAGUAGAUGUGU | 0.387 |
| ACCUGGGCCACUCAGAGACCUCAGUGGGACUGGGAGAGUGGAGGGAACUACAUCAGCGCCCACACUGGACCACAGACGGAGGCAGAUGAGGGCUCCAAGGCCGGAAGUCC | 0.22 |
| GAAAAUCUUAGUGUCUCCUGGUGGAGGGGAAGGACCGGCUGCCUCACCCCACUCCCUGAUCUCACAAAAGUGCGAGUUUCCAGUCCUGACUAACUAGGGCUCCAGUCAGU | 0.389 |
| GCCAGGUCCAGUGGCCUGGGGUCCCACUGCUGAGGGCACCUGCCAGGCCUCACUCCACCCUGAAUGGACUCGAGCCAUGUAUUCAUUCAGUAAACUGACAUUAUUCUCCC | 0.456 |
| GCCCCUGUCUGGGCACCUCUGCCCUGCCUGUCUGCUGCCCGGAUCCUCCUCACUUAGCACCUAGGGGUGUCAGGGUCGGGAGUAGGACCUGUCCUGACCUCAGGGUUAUA | 0.585 |

Study 3
Target: JUN, bZIP domain (human)
Technique: DHFR protein complementation
Sample: yeast
Setting: single substitutions, most at no-binding floor
Baseline: wild-type JUN-FOS pair
Direction: higher = stronger binding
Parent: JUN, bZIP domain (human); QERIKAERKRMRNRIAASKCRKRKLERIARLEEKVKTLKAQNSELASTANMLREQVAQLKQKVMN; partner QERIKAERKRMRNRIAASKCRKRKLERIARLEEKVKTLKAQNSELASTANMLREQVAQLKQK
| Substitution | binding fitness [natural log] |
| --- | --- |
| R53H | -0.715 |
| L38Q | -1.19 |
| E32N | -0.677 |
| R30Q | -0.112 |
| A29T | -0.359 |
| Q55M | -0.337 |
| A57W | -0.595 |
| S43W | -0.464 |

Other studies, line by line
| Molecule | target | assay | test system | setting | how to read | measurement | result |
| --- | --- | --- | --- | --- | --- | --- | --- |
| HDTMHHFYHKREWTQ | UDP-N-acetylglucosamine--peptide N-acetylglucosaminyltransferase 110 kDa subunit (OGT, Homo sapiens, UniProt O15294) | binding, phage display NGS | peptide | concentration not given | baseline: input library | enrichment fold change | 2.87 |

Excerpt of the above (study 2):
| Sequence | RBNS enrichment (R) |
| --- | --- |
| ACCUGGGCCACUCAGAGACCUCAGUGGGACUGGGAGAGUGGAGGGAACUACAUCAGCGCCCACACUGGACCACAGACGGAGGCAGAUGAGGGCUCCAAGGCCGGAAGUCC | 0.22 |
| GAAAAUCUUAGUGUCUCCUGGUGGAGGGGAAGGACCGGCUGCCUCACCCCACUCCCUGAUCUCACAAAAGUGCGAGUUUCCAGUCCUGACUAACUAGGGCUCCAGUCAGU | 0.389 |
| GCCAGGUCCAGUGGCCUGGGGUCCCACUGCUGAGGGCACCUGCCAGGCCUCACUCCACCCUGAAUGGACUCGAGCCAUGUAUUCAUUCAGUAAACUGACAUUAUUCUCCC | 0.456 |
| GCCCCUGUCUGGGCACCUCUGCCCUGCCUGUCUGCUGCCCGGAUCCUCCUCACUUAGCACCUAGGGGUGUCAGGGUCGGGAGUAGGACCUGUCCUGACCUCAGGGUUAUA | 0.585 |
